Results collected from several papers.
Lines come from different studies, so protocols differ. Values joined by “and” are separate records of one study, mostly repeats; a detail may differ. ± marks the error that the study gave. Converted amounts (≈) assume the structure as drawn.

[123I]c1ccc2nc(-c3ccc(-n4ccnn4)nc3)cn2c1 — tracer uptake (male Wistar rat, spleen; intravenous, 4 MBq, 14 h): 0.007 %ID/g
CN1CCC[C@]1(C)/C=C/S(=O)(=O)NC(=O)Nc1c2c(cc3c1C(O)CC3)CCC2 (some centres unmarked) — AUC(0-t) (human, plasma; oral, 100 mg twice daily of parent drug, day 14, metabolite of dosed drug): 525 µg·h/mL
C[C@@H](Nc1c(-c2c(F)cc(C#N)cc2F)c(Cl)nc2ncnn12)C(C)(C)C — organ weight (male PS19 tau transgenic mice; intraperitoneal, 3 mg/kg twice weekly, 3 months; baseline: vehicle): no effect
CCCCN1C(=O)c2cccc3c(NCCN4CCOCC4)ccc(c23)C1=O — fluorescence lifetime (dioxane): 9.7 ns
CNC(=O)C[C@H](Cc1ccc(C#N)cc1)NC(=O)c1cc(-c2ccc(CN[C@H](C)c3ccc(C)cc3)o2)ccc1Cl — blood clearance (mouse liver microsomes; 1 µM): 83.3 mL/min/kg
C=CC(=O)N1CCCC(n2c(=O)c3ncccc3n(Cc3ccc(Oc4ccccc4)cc3)c2=O)C1 (centres unmarked) — plasma concentration (male BALB/c mice, plasma; oral, 200 mg/kg, 6 h): 5070 ng/mL and 2920 ng/mL and 6240 ng/mL
CC(C)C[C@H](NC(=O)[C@@H](CCCCNC(=O)[C@@H](Cc1ccccc1)NC(=O)CCCCCCCNC(=O)CN1CCN(CC(=O)O)CCN(CC(=O)O)CCN(CC(=O)O)CC1)NC(=O)[C@H](Cc1ccc(O)cc1)NC(=O)[C@H](CO)NC(=O)[C@H](Cc1c[nH]c2ccccc12)NC(=O)[C@H](Cc1c[nH]cn1)NC(=O)[C@@H]1CCC(=O)N1)C(=O)N[C@@H](CCCNC(=N)N)C(=O)N1CCC[C@H]1C(=O)NCC(N)=O [indium-111 labelled] — intact radiopeptide in urine (radio-HPLC; nude mice, DU-145 tumour-bearing, urine; intravenous, 18.5 MBq, 1 h; baseline: radioactivity): ~60%
CN(O)C(=O)CCC(=O)NCCCN(CCCCN(CCCNC(=O)CCC(=O)N(C)O)C(=O)CCC(=O)N(C)O)C(=O)CCC(=O)N(C)O.[89Zr] — intact compound (0.9 % NaCl saline; 5 days, pH 4.5, 37 °C): 99 ± 1%
COCC1CN(C2CCN(c3cc(OC)c(Nc4ncc(Br)c(Nc5ccc6c(c5P(C)(C)=O)OCCO6)n4)cc3C)CC2)C1 — Tmax at steady state (EGFR-mutant NSCLC patients, plasma; oral, 30 mg multiple doses, median): 2 h
C/C(N)=N/C(=N\S(=O)(=O)c1ccc(C(F)(F)F)cc1)N1C[C@H](c2ccccc2)C(c2ccc(Cl)cc2)=N1 — half-life (C57BL/6 mouse, muscle; intravenous, 10 mg/kg): 2.9 h
CC(=O)N[C@@H](CCCCN)C(=O)N1CCC[C@H]1C(=O)N[C@H](C(=O)N[C@@H](Cc1ccccc1)C(=O)N[C@@H](CCC(N)=O)C(=O)N[C@@H](Cc1ccccc1)C(=O)N[C@@H](CC(C)C)C(=O)N[C@@H](Cc1ccccc1)C(=O)N[C@@H](Cc1c[nH]cn1)C(=O)N[C@@H](CCC(=O)O)C(N)=O)C(C)C — mean pore diameter (cryo-EM; hydrogel; pH 7.4): 5.6 µm
O=C([O-])CN1CCN(CC(=O)O)CCN(CC(=O)[O-])CCN(CC(=O)O)CC1.[64Cu+2] — blood elimination half-life (dynamic micro-PET imaging; rat, chronic myocardial infarction, blood; intravenous): 0.353 ± 0.035 h
Cc1cc(C(=O)N[C@@H](CC(=O)NC(C)(C)C)C(=O)NCCNC(=O)c2cccc(-n3cccn3)c2)no1 — mean residence time (mouse, plasma; intravenous, 0.1 mg/kg): 0.39 h
O=C(Nc1cnccc1-c1ccc([18F])nc1)c1ccnc(NC(=O)C2CC2)c1 — SUV (FVB/NJ mouse, both sexes, brain; intravenous, 20 min, added: tariquidar 15 mg/kg iv): 0.171
Cc1nc(N)nc2c1C(=O)N[C@@H](c1ccc(F)cc1-c1cccc(OCC[18F])n1)C2 — blood uptake (ex vivo biodistribution; C57BL/6 mouse, whole blood; intravenous, 1 MBq, 30 min, baseline, vehicle): 5.31 ± 0.37 %ID
CCC1C=C(C)C(O)C(C)CC(OC)C2OC(O)(C(=O)C(=O)N3CCCCC3C(=O)OC(C(C)=CC3CCC(O)C(OC)C3)C(C)C(O)CC1=O)C(C)CC2OC (centres unmarked) — blood concentration (mouse C57BL/6; topical, dose not given, 6 h): not detected
COc1ccc(Nc2nc(Nc3ccc(OCCOCC[18F])cc3)ncc2Br)cc1 — blood uptake (ICR mouse, S180 tumour, blood; intravenous, 30 min, blocking, added: PF-562271 33 mg/kg oral one h before): 2.86 ± 0.31 %ID/g
CCCCCCCOc1ccc(CC[C@](N)(CO)COP(=O)(O)O)cc1C(F)(F)F — urinary excretion (0-24 h) (healthy men, urine; oral, 0.5 mg once daily, day 1, fed state; baseline: dose): 0%
C=C(NC(=O)c1csc(-c2nc3c(cc2O)-c2nc(cs2)C(=O)NC(C(C)O)C(=O)NC(=C(C)OC)c2nc(cs2)C(=O)NC2c4nc(cs4)C(=O)NC(COC(=O)c4c5c6c(cccc6n4O)COC(=O)C(OC4CC(C)(O)C(N(C)C)C(C)O4)C2OC5)c2nc-3cs2)n1)C(N)=O (centres unmarked) — Cmax (Sprague-Dawley rat, both sexes, plasma; intravenous infusion, 6 mg/kg, multiple doses, day 7): 3560 ± 627 ng/mL
O=C(NS(=O)(=O)c1cccs1)c1cc2ccccc2n1Cc1ccc(Br)c2ccccc12 — body weight (KM mouse, chronic hyperuricaemia model; dose not given, day 3): 27.6 g and 25.4 g and 26.6 g and 26.8 g and 28.2 g
CCCCN1C(=O)c2cccc3c(NCCCCCCCCCCN4CCOCC4)ccc(c23)C1=O — molar extinction coefficient (acetonitrile): 13300 M⁻¹ cm⁻¹
C=CC(=O)Nc1cc(Nc2nccc(-c3c[nH]c4ccccc34)n2)c(OC)cc1N(C)CCN(C)C — recovery (storage stability; human dried blood spots; 5 h, -80 °C, high QC level): 96.2%
Cl.NCc1ccc2c(c1)CN(C1CCC(=O)NC1=O)C2=O (centres unmarked) — remaining compound (male Beagle dog, whole blood; 3 h): < 1%
Clc1cccc(Nc2nc(NCc3ccccc3)c3ccccc3n2)c1 — solubility (aqueous buffer; pH 5): 0.04 µg/mL (≈ 0.111 µM)
CCCCN1C(=O)c2cccc3c(NCCCCCCN4CCOCC4)ccc(c23)C1=O — molar extinction coefficient (chloroform): 12500 M⁻¹ cm⁻¹
NCCCC[C@H](NC(=O)[C@@H](N)Cc1c[nH]c2ccccc12)C(=O)N[C@@H](Cc1c[nH]c2ccccc12)C(N)=O — mean first passage time (membrane permeation, tryptophan fluorescence; DOPC large unilamellar vesicles; pH 7.2): ~22 min
CCn1nc(Cl)c2c1-c1cnc(N)c(c1)O[C@H](C)c1cc(F)ccc1-c1nn(C)cc1C2 — free plasma concentration (Balb/c nude mouse female, plasma; 0.06 mg/kg single dose, 12 h): 0.1 nM
CCCCN1C(=O)c2cccc3c(NCCCCCCCCN4CCOCC4)ccc(c23)C1=O — molar extinction coefficient (acetonitrile): 11800 M⁻¹ cm⁻¹
O=C([O-])CN1CCN(CC(=O)[O-])CCN(C(CO)C(O)CO)CCN(CC(=O)[O-])CC1.[Dy+3] (centres unmarked) — terminal phase AUC share (ICP-MS; female cynomolgus monkey, plasma; intravenous bolus, 0.1 mmol/kg, lanthanide mixture, geometric mean; baseline: AUC): 0.719%

For quick reference, copied from above:
CCCCN1C(=O)c2cccc3c(NCCCCCCCCN4CCOCC4)ccc(c23)C1=O — molar extinction coefficient (acetonitrile): 11800 M⁻¹ cm⁻¹
C=C(NC(=O)c1csc(-c2nc3c(cc2O)-c2nc(cs2)C(=O)NC(C(C)O)C(=O)NC(=C(C)OC)c2nc(cs2)C(=O)NC2c4nc(cs4)C(=O)NC(COC(=O)c4c5c6c(cccc6n4O)COC(=O)C(OC4CC(C)(O)C(N(C)C)C(C)O4)C2OC5)c2nc-3cs2)n1)C(N)=O (centres unmarked) — Cmax (Sprague-Dawley rat, both sexes, plasma; intravenous infusion, 6 mg/kg, multiple doses, day 7): 3560 ± 627 ng/mL
Clc1cccc(Nc2nc(NCc3ccccc3)c3ccccc3n2)c1 — solubility (aqueous buffer; pH 5): 0.04 µg/mL (≈ 0.111 µM)
